Literature values that unrelated publications cite.
Compare with care: the assays were run in different laboratories.

SMILES | tested on | assay | test system | conditions | measurement | result
COCCOc1nc(-c2ccc(Cl)nc2)nc2c1CN(C(=O)c1ncn3ccccc13)CC2 | adenosine transporter guinea pig | radioligand binding |  |  | IC50 | 1610 nM
CN(C/C=C/C#CC(C)(C)C)Cc1cccc2ccccc12 | squalene epoxidase (Trichophyton rubrum) |  |  |  | IC50 | 15.8 nM
CC1=C(C#N)C(c2ccc3[nH]nc(C)c3c2)C(C#N)=C(C)N1 | RSK2 | Millipore kinase panel |  |  | IC50 | 900 nM
C#C[C@]1(O)CC[C@H]2[C@@H]3[C@H](C)CC4=C(CCC(=O)C4)[C@H]3CC[C@@]21C | Cryptosporidium parvum | high-throughput screen |  | concentration not given | activity | inactive
C[C@@H](c1cccc(C#N)c1)n1cc(Cl)cc(C(N)=O)c1=N | ADRA1D |  |  |  | Ki | 130 nM
O=C(O)CN(CC(=O)O)[C@H]1CCCC[C@@H]1N(CC(=O)O)Cc1ccccn1 |  | measured: Mn2+ |  |  | log K MnL | 14.1
Cc1cn([C@H]2C[C@H](N=[N+]=[N-])[C@@H](CO)O2)c(=O)[nH]c1=O | human immunodeficiency virus 1 | viral replication | PBMC, LAI |  | ED99 | 10 nM
CNC(=O)c1ccc(Nc2ncc(C(F)(F)F)c(NCc3nccnc3N(C)S(C)(=O)=O)n2)cc1 | CLK1 | kinase activity |  |  | IC50 | 250 nM

Excerpt of the above:
SMILES | tested on | assay | test system | conditions | measurement | result
C[C@@H](c1cccc(C#N)c1)n1cc(Cl)cc(C(N)=O)c1=N | ADRA1D |  |  |  | Ki | 130 nM
